Assay results from different studies.
Lines come from different studies, so protocols differ. Several values in a cell are separate wells, animals, samples, runs or records. Numbers after ± are the reported error.

| Compound | tested on | assay | test system | conditions | how to read | endpoint | value |
| --- | --- | --- | --- | --- | --- | --- | --- |
| Oc1c(Br)cc(Br)c2nc3ccc(C(F)(F)F)cc3nc12 | – | haemolysis | – | 200 µM | – | haemolysis | ≤ 1% |
| CC[C@H](C)[C@H](NC(=O)[C@H](C)NC(=O)[C@H](CCCCN)NC(=O)[C@H](CCCCN)NC(=O)[C@@H](N)CCCNC(=N)N)C(=O)N[C@@H](CCCCN)C(=O)N[C@@H](CC(C)C)C(=O)N[C@H](C(=O)N[C@@H](CCCCN)C(=O)N[C@@H](CCCCN)C(=O)N[C@@H](CC(C)C)C(=O)N[C@H](C(=O)N[C@@H](CCCCN)C(=O)N[C@@H](CCCCN)C(=O)N[C@@H](CC(C)C)C(=O)N[C@@H](CCCCN)C(=O)N[C@@H](CCCCN)C(=O)N[C@@H](C)C(=O)N[C@@H](CC(C)C)C(=O)N[C@@H](CCCCN)C(=O)O)C(C)C)C(C)C | – | – | human red blood cells | 0.5 mg/L, 1 h | – | hemolysis | 1.13% and 0.442% and 0.23% |
| O=C1NC2(CC2)COc2ncc(F)cc2[C@H]2COCCN2c2ccn3ncc1c3n2 | – | – | Sprague-Dawley rat, male, testes | oral, 5 mg/kg/day, 4 weeks dosing, end of recovery | – | organ-to-body weight ratio | 0.645 ± 0.05% |
| N#[11C]c1ccc(-c2csc(NN=C3CCCC3)n2)cc1 | – | – | C57BL/6 mice, male, kidney | intravenous, 3 MBq, 5 min | – | radioactivity uptake | 10.7 ± 1.1 %ID/g |
| CCn1ccc(-c2cc([C@@H](C)NC(=O)c3cc(OCCN(C)C)ccc3C)c3ccccc3n2)n1 | Vero E6 | – | – | 15.62 µM | – | viability | 82% and 96.2% and 81.6% |
| CC[C@H](C)[C@H](NC(=O)[C@H](CCCCN)NC(=O)CNC(=O)[C@H](CC(C)C)NC(=O)[C@H](Cc1ccccc1)NC(=O)[C@H](CCCCN)NC(=O)[C@H](CO)NC(=O)[C@H](Cc1ccccc1)NC(=O)[C@H](Cc1c[nH]c2ccccc12)NC(=O)[C@H](CCC(N)=O)NC(=O)[C@@H](NC(=O)[C@H](Cc1ccccc1)NC(=O)CCCCCNC(=O)CN1CCN(CC(=O)O)CCN(CC(=O)O)CCN(CC(=O)O)CC1)C(C)C)C(=O)N[C@@H](CCC(=O)O)C(=O)N1CCC[C@H]1C(=O)N[C@@H](CC(=O)O)C(=O)N[C@H](C(=O)N[C@@H](CO)C(=O)N[C@@H](CCC(N)=O)C(=O)N[C@H](C(=O)N[C@@H](CCC(N)=O)C(=O)N[C@@H](CC(=O)O)C(=O)N1CCC[C@H]1C(=O)N[C@@H](CC(N)=O)C(=O)N[C@@H](CC(=O)O)C(=O)N[C@@H](CCC(N)=O)C(=O)N[C@@H](Cc1ccc(O)cc1)C(=O)N[C@@H](CCC(=O)O)C(=O)N1CCC[C@H]1C(=O)N[C@@H](Cc1ccccc1)C(=O)O)C(C)C)C(C)C [copper-64 labelled] | – | dynamic PET | mouse both sexes, CT26 tumour, checkpoint inhibitor-treated, tumour | intravenous, 100 µCi/mouse, 270 s | – | SUVmean | 3.29 SUV |
| CSCC[C@@H]1NC(=O)[C@H](C(C)C)NC(=O)[C@H](CCCNC(=N)N)NC(=O)[C@@H]2CCCN2C(=O)CNC(=O)[C@@H](NC(=O)CNC(=O)[C@H](CO)NC(=O)CNC(=O)[C@H](CO)NC(=S)Nc2ccc(C[C@H]3CN(CC(=O)O)CCN(CC(=O)O)CCN3CC(=O)O)cc2)CSSC[C@@H](C(N)=O)NC(=O)[C@@H]2CCCN2C(=O)CNC(=O)[C@H](CCC(=O)O)NC(=O)[C@H](CC(=O)O)NC(=O)[C@H](CC(=O)O)NC(=O)CNC(=O)[C@H](CC(C)C)NC(=O)[C@H](Cc2c[nH]cn2)NC(=O)[C@H](CC(C)C)NC(=O)CNC(=O)[C@H](Cc2c[nH]cn2)NC1=O [copper-64 labelled] | – | dynamic PET | CD rat, myocardial infarction, infarct myocardium fibrosis | intravenous, 18.5 MBq | – | clearance half-life | 24.1 ± 1.5 min |
| CS(=O)(=O)c1cc(Cl)cc(-c2cc(Cl)c(Cl)cc2Cl)c1Cl | – | ultrafiltration | cow milk whey | 100 nM nominal in whole milk | – | dose fraction in permeate | 40.4% |
| CC(C)(C)C(=O)OCOP(=O)(OCOC(=O)C(C)(C)C)C1CCCN(O)C1=O (stereo not shown) | HCC 2998 | – | – | – | – | log GI50 | -6.35 log M |
| CCN(Cc1ccccc1)C(=O)CCc1nc(CN2CCN(C(=O)Cc3ccc(OC)c(OC)c3)CC2)no1 | – | rotarod test | mouse, CCI neuropathic pain model | 1 mg/kg | – | time to first slip | 0.85 ± 0.07 min |
| CSCC[C@H](NC(=O)[C@@H](NC(=O)[C@H](CC(C)C)NC(=O)[C@@H](NC(=O)[C@H](Cc1c[nH]cn1)NC(=O)CCCCCNC(=O)[C@H](CCCNC(=N)N)NC(=O)[C@H](CCCNC(=N)N)NC(=O)[C@H](CCCNC(=N)N)NC(=O)[C@H](CCC(N)=O)NC(=O)[C@H](CCCNC(=N)N)NC(=O)[C@H](CCCNC(=N)N)NC(=O)[C@H](CCCCN)NC(=O)[C@H](CCCCN)NC(=O)[C@H](CCCNC(=N)N)NC(=O)CNC(=O)[C@@H](N)Cc1ccc(O)cc1)C(C)C)C(C)C)C(=O)N[C@@H](CS)C(=O)N[C@@H](C)C(=O)N[C@H](C(N)=O)[C@@H](C)O | – | – | C57BL/6J mice | Alzet osmotic pump, 3 mg/kg, 8 weeks | – | serum Creatinine | 0.2 mg/dL |
| CC(C)[C@@H]1NC(=O)CNC(=O)[C@H](CC(N)=O)NC(=O)[C@H](CCCNC(=N)N)NC(=O)[C@H](Cc2ccc(O)cc2)NC(=O)[C@H](C(C)C)NC(=O)[C@@H](NC(=O)[C@@H](NC(=O)[C@H](CC(N)=O)NC(=O)[C@H](Cc2c[nH]c3ccccc23)NC(=O)[C@H](C)NC(=O)[C@H](Cc2ccccc2)NC(=O)CNC(=O)[C@H](CCCCN)NC(=O)[C@H](Cc2ccccc2)NC(=O)[C@H](Cc2ccccc2)NC(=O)[C@H](CCCCN)NC(=O)OCC2c3ccccc3-c3ccccc32)C(C)C)CSSC[C@@H](C(=O)N[C@@H](Cc2c[nH]cn2)C(=O)N[C@@H](CCCNC(=N)N)C(=O)N[C@@H](CCCNC(=N)N)C(=O)N[C@@H](C)C(=O)N[C@@H](CC(N)=O)C(N)=O)NC(=O)[C@H](C(C)C)NC(=O)[C@H](CCCNC(=N)N)NC1=O | – | – | ICR mouse, blood | intramammary, 5 mg/kg, day 5, 3 d dosing | – | AST/ALT ratio | 0.55 ± 0.03 |
| COc1ccccc1-c1n[nH]c2nc(N[C@H]3CC[C@H](NS(=O)(=O)CC(C)C)CC3)ncc12 | – | bead binding, competition bead pull-down, refers to: LINJ.32.0890 | Leishmania donovani extract | 10 µM | relative to: vehicle | relative abundance | 0.87 |
| CCN(CC)CCOc1ccc(-c2nnn(Cc3ccc(OC)cc3)c2N)cc1 | – | – | dog hepatocytes | concentration not given, time not given | – | remaining compound | 54% |
| Cc1ccc(OCCN(C)C)cc1C(=O)N[C@H](C)c1cc(-c2cccnc2N2CCCC2)nc2ccccc12 | Vero E6 | – | – | 3.906 µM | – | viability | 96.8% and 109% |
| CC(C)C[C@H](NC(=O)[C@H](Cc1ccc(O)cc1)NC(=O)[C@H](Cc1c[nH]cn1)NC(=O)[C@H](CC(N)=O)NC(=O)[C@H](CC(C)C)NC(=O)[C@H](C)NC(=O)[C@H](CC(C)C)NC(=O)CNC(=O)CNC(=O)[C@@H](NC(=O)[C@@H](NC(=O)[C@H](CCCCN)NC(=O)CNC(=O)[C@@H](NC(=O)[C@H](CCCCN)NC(=O)[C@H](CCCCN)NC(=O)[C@H](C)NC(=O)[C@H](CCCCN)NC(=O)[C@H](CCCNC(=N)N)NC(=O)[C@H](Cc1ccccc1)NC(=O)[C@H](Cc1c[nH]c2ccccc12)NC(=O)[C@H](CC(=O)O)NC(=O)[C@H](CCCCN)NC(=O)[C@H](Cc1c[nH]c2ccccc12)NC(=O)CN)C(C)C)[C@@H](C)O)C(C)C)C(N)=O | – | – | zebrafish embryos 28 hpf, E3 medium | 1 h | – | acute toxic concentration | 5 µM |
| Cc1cc(-c2ccc3ccccc3c2)nnc1NCCN1CCN(C)CC1 | – | metabolic stability | rat, liver microsomes | 30 min | – | compound remaining | 80.8% |
| CC(C)=CCC/C(C)=C/CCn1cc(CC(C)(P(=O)(O)O)P(=O)(O)O)nn1 | – | PAMPA | phosphate buffer | 5 µg/mL, 5 h, room temperature | – | Papp | 0.208 ± 0.013 ×10⁻⁶ cm/s |
| CC1(C)C(=O)N(c2ccc(C#N)c(C(F)(F)F)c2)C(=S)N1c1ccc(C(N)=O)c(F)c1 | – | – | male human, plasma | oral, 80 mg, single dose, fasted | – | MRT | 15.8 days |
| COc1ccccc1-c1n[nH]c2nc(NC3CCN(C(=O)Cc4ccc(F)cc4F)CC3)ncc12 | – | bead binding, competition bead pull-down, refers to: LINJ.36.0780 | Leishmania donovani axenic amastigote extract | 10 µM | relative to: vehicle | relative abundance | 0.61 |
| CCCC[C@H]1C(=O)N(C)[C@@H](CCCC)C(=O)N[C@@H](CCCCNC(=S)Nc2ccc(CN3CCN(CC(=O)O)CCN(CC(=O)O)CC3)cc2)C(=O)N[C@H](C(=O)NCC(N)=O)CSCC(=O)N[C@@H](Cc2ccc(O)cc2)C(=O)N(C)[C@@H](C)C(=O)N[C@@H](CC(N)=O)C(=O)N2CCC[C@H]2C(=O)N[C@@H](Cc2cnc[nH]2)C(=O)N[C@@H](CCC(=O)O)C(=O)N2C[C@H](O)C[C@H]2C(=O)N[C@@H](Cc2c[nH]c3ccccc23)C(=O)N[C@@H](CO)C(=O)N[C@@H](Cc2cn(CC(=O)O)c3ccccc23)C(=O)N1C [fluorine-18 labelled] | – | – | huCD34 mice with A-375 melanoma, tumour | dose not given, 7 days, together with: ipilimumab 4 mg/kg and pembrolizumab 4 mg/kg | relative to: pretreatment baseline | change in tumour uptake | 2.9 ± 1.89 %ID/cc |
| COc1ccc([C@@H]2CC(=O)c3c(O)cc(O[C@@H]4O[C@H](CO)[C@@H](O)[C@H](O)[C@H]4O[C@@H]4O[C@@H](C)[C@H](O)[C@@H](O)[C@H]4O)cc3O2)cc1O | – | – | male Sprague-Dawley rats, lean, urine | oral, 100 mg/kg, 48 h | – | cumulative urinary excretion | 27.3 ± 10.2 ng |

For quick reference, copied from above:
| Compound | tested on | assay | test system | conditions | how to read | endpoint | value |
| --- | --- | --- | --- | --- | --- | --- | --- |
| COc1ccccc1-c1n[nH]c2nc(N[C@H]3CC[C@H](NS(=O)(=O)CC(C)C)CC3)ncc12 | – | bead binding, competition bead pull-down, refers to: LINJ.32.0890 | Leishmania donovani extract | 10 µM | relative to: vehicle | relative abundance | 0.87 |
| CCN(CC)CCOc1ccc(-c2nnn(Cc3ccc(OC)cc3)c2N)cc1 | – | – | dog hepatocytes | concentration not given, time not given | – | remaining compound | 54% |
| Cc1ccc(OCCN(C)C)cc1C(=O)N[C@H](C)c1cc(-c2cccnc2N2CCCC2)nc2ccccc12 | Vero E6 | – | – | 3.906 µM | – | viability | 96.8% and 109% |
